Measured values from different studies.
Numbered parts are unrelated; each lists some results of a single study.

Study 1
Target: Hepatocyte nuclear factor 3-alpha (Foxa1, Mus musculus, UniProt P35582, residues 1-468, full length assumed)
Technique: EMSA with sequencing
Form: double-stranded DNA, one strand shown
Sample: in vitro
Tested at: 10 and 20 nM
Notes: whole designed probe, mean of two concentrations, ends assumed
Reference: negative control set to 0
Direction: higher = stronger binding
Constant ends, left off below: GTGAGCGGTGCCCATTGATGGGGAAC … TTTCACTGGGATCGTGGGGAC
Construct (chain): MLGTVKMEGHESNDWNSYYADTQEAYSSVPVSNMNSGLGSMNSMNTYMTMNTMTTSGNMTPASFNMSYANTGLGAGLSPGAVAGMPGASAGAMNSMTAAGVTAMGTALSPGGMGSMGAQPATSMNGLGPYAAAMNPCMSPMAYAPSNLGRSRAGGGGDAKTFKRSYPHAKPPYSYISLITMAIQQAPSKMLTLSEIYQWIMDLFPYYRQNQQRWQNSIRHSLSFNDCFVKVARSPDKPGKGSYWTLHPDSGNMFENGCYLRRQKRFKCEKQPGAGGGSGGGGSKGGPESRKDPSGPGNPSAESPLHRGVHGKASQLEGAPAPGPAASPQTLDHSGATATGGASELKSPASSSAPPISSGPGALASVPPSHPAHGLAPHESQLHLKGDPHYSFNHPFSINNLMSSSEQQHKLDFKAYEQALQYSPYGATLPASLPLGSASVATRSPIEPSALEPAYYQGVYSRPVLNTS
| Oligonucleotide | normalised bound fraction [ratio] |
| --- | --- |
| ATCTTCCCCCTCTTCCTTGCCCCACCAGCTCACCTACGGGGGTTATTTGCAGATAGGAAAATAAATAAAGCCGGCATTCGTTAACGCAGTTCACGCGCATACTGCTGTTTGCTCTGGATGAATCATGGTCCTTTGGCGACGCCAGGCTCCGGGAGAGCAAAGCACCGTGTCAGGGCCATGATCCGGGCTCGCC | 0.344 |
| GCAGTTCTGTGGTAGTGGGCATCAGTAAAGCTCTTCTCCAGGGCTAGGCTTCTCCTTATTTCTAGAGTGTCAGGGAAAAGGACTTCTTCAAAGTAAACAAGAAGTGCAATATTCACAAAGGACACATACATTCTCAGTGCTGTATTTGGCTGCAACTTCAGGGAGGTCAGATGGTCGTGCAGTTTACCACTGG | 0.414 |
| AAATGTAAAACTGCTGAAAAGATAAGAAGAAATGAATAAATCTATAATTAAGACGGAAATCTTTAATAGGCCATAGGCCTCAGGAGTCCTCAAAGTAATCTAAAAATGCACAAGCATGCTTATCTTAAAGGATTAAATAGGTATTTTTAAAATATTGATTTAATACACATGTAGAACTATTAAGTAACAAAAT | 0.0528 |
| CATGTACAAACAAAATATGGGTTGTGTAATTTCAGTAATTCCATGTACAAGTTAAACACTCTGATATTTGCATTTAAAATGTCATTGCACAATGTAAACATGAATGCTAACAATCTTTTTTTTTTTTCCTGAGACGGAGTCTTGCTCTATCGCCCAGGCTGGAGTGCAGCGGCACAATCTCTGCTTACTGCCA | 0.502 |
| TTATGTACTTGGAGCAGTTATAGGCACAGTATTTTATTTCCAAGAAAGCAGTGTAGAGGGGCCAAGTAGCATATAGATGGTATATTTAAAAAGTAAACATGCAGTAAATACTTAGTACTCTCTGTACAGAATAAATGAAAATCCAACTCATTACAGATTAGAAAAATTATATGTGGATGGAAAGAACAGTTAT | 0.361 |
| GCACTAAAAATATGTTTTTTTAAAAAATCTCCAGGGCCACTCCTAGGGTGTGCAGTGCCCTGCAAAGATAGTTTTTGTAGGGTACTTGCCTATGTAAACAACACAATTTTAGAATTCATTCCAAAACTTACAGGTCTGTGTGAGGTATAGTGATTAATGGATAGAGAAGAGATGCTTACACATTTGTTTATTG | 0.46 |
| TACTGGTTATAAGGAGAAGAGGCTAACAACTGTAGTAGTCTCAGATTGCTACAATTTTACACTATGAAATATGAGTGCCACAGATTTTCAGAGTAAACATGGGAGAGTAATCTAAAATAATGTGAAAATAAATCTCTAGTTAGATAGGAGTATCAGGAGAAAAGGCACAAGCAAGCATGCAAAGTGGAAAAAA | 0.181 |
| TCCTTTATCCCAACAAGATTATACAGACAAAACCAGGTTAAAATCGACACAAGGTCAACTTGAAATGGGGAAAGAGGAAGGTGACGTCACAAAATAATCTTGAAGTCTTGTGTACAAGCATCTGCAGAAGAGTTCAGCCTCACCACTTGGGTAATGCTGTTGGAATGTGGTCTGGGTTCACTGTATTTGAATG | -0.00369 |

Study 2
Target: Histone acetyltransferase KAT6A, winged helix 1, GST fusion (KAT6A, Homo sapiens, UniProt Q92794, residues 1-85)
Technique: protein binding microarray
Form: double-stranded DNA, one strand shown
Sample: in vitro
Tested at: not given
Notes: 8-mer, flanks averaged, mean of 2 arrays, mostly near background
Reference: not given
Direction: higher = stronger binding
Construct (chain): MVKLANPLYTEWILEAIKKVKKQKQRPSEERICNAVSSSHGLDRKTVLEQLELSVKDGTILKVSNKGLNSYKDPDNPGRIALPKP
| Oligonucleotide | E-score |
| --- | --- |
| AAGACACG | 0.0531 |
| ATGACGAC | -0.0343 |
| AACGGTAA | 0.166 |
| GATTGCGC | 0.333 |
| ACTCCGCA | -0.0613 |
| CAACATCC | 0.0979 |
| AAAGCAAG | -0.0141 |
| GCGCCTCC | 0.261 |
| CCACAAGC | -0.0666 |
| AACTTGAT | -0.0723 |
| AAATAGCA | -0.136 |
| CACATAAA | -0.0122 |
| AATCTTCT | -0.0683 |
| ACGTGATA | -0.0487 |
| CTGCCCAA | -0.219 |
| AGCCACAG | -0.214 |
| GGGCGCAC | 0.253 |
| CCCGTTAA | 0.276 |
| AATAACCT | -0.2 |
| GAGAACTA | -0.13 |
| AGACGGCA | 0.277 |
| TCGGAACA | -0.0137 |
| GTTCTATA | -0.0153 |
| CATACTGC | -0.0155 |
| AAGCCAGC | -0.136 |

Study 3
Target: RNA binding protein fox-1 homolog 2, RRM domain, GST-SBP tag (RBFOX2, Homo sapiens, UniProt O43251-10, residues 100-194)
Technique: RNA Bind-n-Seq
Form: RNA
Sample: in vitro
Tested at: 365 nM
Notes: natural RNA segment, single round, ends assumed
Reference: no-protein control
Direction: higher = stronger binding
Constant ends, left off below: GGGAGUUCUACAGUCCGACGAUC … UGGAAUUCUCGGGUGCCAA
Target sequence (chain): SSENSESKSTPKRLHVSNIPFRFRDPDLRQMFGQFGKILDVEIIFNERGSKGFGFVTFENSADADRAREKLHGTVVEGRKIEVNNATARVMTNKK
| Oligonucleotide | RBNS enrichment (R) |
| --- | --- |
| GGCUGGGGCCCCAUCUUGAUCUUUGAGCCCAUUCUUCUGGGUGUGCUUUUUGGGACCAUCACUGAGAGUCAGGAGUUUUACUGCCUGUAGCAAUGGCCAGAGCCUCUGGC | 0.256 |
| UCUGUCACAAACCACAUUAAAUUGUAAAUAAGGCCCUUCUCCACUUGACUUCAGGCAGCAGAUUGUCUAGAAGCCUAAGGACAGCAAUUUCUCUGACAAGACAAAGUAGA | 0.371 |
| UAGGACUGUACUUUUGUAGAGUUUAGACAGAGCAUCAAUCCCUUCUCCCCGCGAGUGCAGUCGGAUGCCGUUGUCCCCAAGGGCCAGGCCGAACUCGCCCCACACCUGCG | 0.516 |
| CAGAGUAUGCCAGUAUCUUAUUGUUAAAACUGAAUCAAAUAAAUCUUCGAUUCCUGGUUAUUUGGACCAUUGACUCAUCAUGGACUAUAUAAUGUAAUAAGAUUCUUUUC | 0.689 |
| AAUCAGCCUUGGACAGUGCCGCCUUCCAGAGCAGAAUCACUGAGCCCCACGGCUGAAGCUGCAUCUGAUGAAACUGAUGGGUACUGCUUGUCCCUCAGCUCACACUUGGC | 0.34 |
| UUUCUGUGCUACGGAUUUACCAAAAAUUGUCAAGUCUUUUUCAGUUUAACAGUUCCUUUACAUGUGUAGUAUUUGAGGAAAAAAAUCAAUAAACAGUUGAUCUCGUGCAU | 0.38 |
| ACUUUUGUACUUUAUUACGAGUAAAGUGUAAUGAGUACUGUGGAAACCAAAUUUGAAUACUGCAAAUUUGUAGGAGUUACUAGGUUAGCAAUUAGUCCAUACAUCCAUAA | 0.826 |
| UGAUUUUAUGAAACAGAAUGUCACCAUAUAAUUCCAAAAAGGGCUUUGUGCUUCUCAUGUAACAUUGGGAUUGUGUAGAUUUGAACCUUAUAACUUGAAUUUUAAAGAUA | 0.334 |
| GACGCAGGCUGGGGCAAGUGGUGCGUGGGGCCUGGUCCCCAAGGGGCGGCUGAGAGGCCGCCACUGAGCAUCUCUAUCUGUCAUUCCUUUAGCUAUUUAGGGACCAAAGG | 0.291 |
| CAUUUUACUUAAAUGGAAAAUGUUUUUCAAAUAAAUACUUAUGUUGUUCAUGUUCCAAGUUAUUCAAUUCCUUUAUGAGUGAAUGUUUUUACUUUUGACUCCUAAAUAGG | 0.651 |
| AUUUGAAUUCCAUUCCCAGUUCUCAUUGUGUUUUGUUUCUUAAAACUAUAAUAAUCGGUUACUGUUAUAAAGUUUAAAAGGUGGUUUUAAUGUGAAUAGCAAAUUCUGGU | 0.873 |
| GCUGGGCUGAGAGUUCUGCAGUCUAGCUCUGACUUAGGUCAGGGGCCUGUUGGUCUCUCAUUGGACGUUUUUGGGUCUCACUCAUGCUUACUGAAACAUUGUGCCAAGAA | 0.255 |

Study 4
Target: RING finger protein unkempt homolog, zinc fingers 1-6, SBP tag (UNK, Homo sapiens, UniProt Q9C0B0, residues 30-357)
Chain of UniProt Q9C0B0 (30-357, looked up): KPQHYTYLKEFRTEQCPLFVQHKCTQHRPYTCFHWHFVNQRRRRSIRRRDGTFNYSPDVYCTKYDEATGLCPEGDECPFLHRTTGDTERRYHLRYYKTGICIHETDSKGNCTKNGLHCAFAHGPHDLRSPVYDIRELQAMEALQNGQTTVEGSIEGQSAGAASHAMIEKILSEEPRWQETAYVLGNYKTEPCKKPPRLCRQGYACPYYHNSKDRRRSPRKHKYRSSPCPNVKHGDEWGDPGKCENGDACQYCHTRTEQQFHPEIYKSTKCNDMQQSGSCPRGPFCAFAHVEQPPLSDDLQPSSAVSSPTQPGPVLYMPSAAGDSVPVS
Technique: RNA Bind-n-Seq
Form: RNA
Sample: in vitro
Tested at: 100 nM
Notes: RNA with constant flanks, vertebrate orthologous sites, ends assumed
Reference: input RNA pool
Direction: higher = stronger binding
Constant ends, left off below: GGGAGUUCUACAGUCCGACGAUC … CAACAGAGGAUUGAGCAUCA
| Oligonucleotide | bound/input enrichment [ratio] |
| --- | --- |
| CCCCCCUGAACCCCAUAUCUUCUGUUUCAUAGUGCAGAGUAUUCUCUUCAAUUAUGUUAUUAGUGGACUUGUUUUAAUUUUAGGGAAACUUUCAGUACAGAUACUGUGAGCUUACAUGGA | 1.22 |
| AACUUGUGUGAAACAUGUCUAUCCAGAGAAGUAGCAUUCUGUAAAUAUUAUCAAGUAAUUUAGUAUUUUUAGGUAUUAAAUUACAUAUCAAGCAUUUAAAGUGAAUUUGAGAUUAAAAGU | 0.386 |
| CUUUUAACCAAUUAUGUCUGUAAAUGUAUAUUGAGAGAACUGAAAUAUUUAUAAACAGAGUGAUUUAUUUAAGGAAAAGCUCAUUCCUCUUUCGUAUGGUGGUCUGUGUUAAUUACAUUU | 0.764 |
| CAUGACCUUGUUACUGUGAUAUUUUAAAUAUCCACAGUACUCACUUUUUCCAAAUGAUCCUAGUAAUUGCCUAGAAAUAUCUUUCUCUUACCUGUUAUUUAUCAAUUUUUCCCAGUAUUU | 1.52 |
| AAUUGACAAUGAAAAGAGCCAAGCAGUAGCAUUUUGUUUUUUUAUAAAUGUAAAAAUUAGAUUCACUGUUUCCUAUUCAGUUUUAAAAAUAAAAAUACCUCAGUGCUGUGUUUCCCAGUA | 0.673 |
| CAUGUGCUGGUGCAGAGCCGUCUGUGCCACUGCGCAUCGUCCCUUGGUACCAACUGUCUCUAGUUGUAGGAAUUUAAUAUUUUUAAAAGUUUUACAUUGCUGUAUAUUCAAAGAUUUGUU | 0.285 |
| CAGCUAACUCGCUGAUUGGCCGGGCCGCCCACAUCGCUGUCCUCGACUCUGAGAUCUUCCUGGAGAAGUUCUUCCUCGUCGCAGGCCUCAGGUUCUUUCAGUAGAACAACGGCAGAAAUG | 0.456 |
| AAUCAUGCUGCUUUUACCUGCCUCAAUGAGGUAACAUCUCCCCUGACGUUUGGUUGGCACUAGAGCCCAUCACACCUAAUAUGUUUUUCCACAUUUCAUCUCCUUACGCUCACACUCAUC | 1.61 |
| AGAAAAUUUUAACCAAGAAUCUGAAGGUAGAAAUACAGGACCAUGGUUAUCUUCCUCACUUAGAAAUAGAUGCACACCUUUGUUCUCUAGAAGGAGACGAGAGGGACGAGAUGAAUCUUC | 0.633 |
| CCAGAAUUUUAACCAAGAAUCUGAAGGUAGAAAUACAGGACCAUGGUUAUCUUCUUCACUUAGAAAUAGAUGCACACCUUUGUUCUCUAGAAGGAGACGAGAGGGACGAGAUGAAUCUUC | 0.652 |
| UCAGUGACAGAAAGGCGCCCAUGAAGACCAGGAGCGGUCACGCUGGGCGUCGGCGGGGCCUGGGGUCAGGCACUGCGACCAAGUCUUCUCACAUCCCGUGUCCGCUCACUCGAGUCAUCU | 0.26 |

For quick reference, copied from above (study 4):
| Oligonucleotide | bound/input enrichment [ratio] |
| --- | --- |
| CCAGAAUUUUAACCAAGAAUCUGAAGGUAGAAAUACAGGACCAUGGUUAUCUUCUUCACUUAGAAAUAGAUGCACACCUUUGUUCUCUAGAAGGAGACGAGAGGGACGAGAUGAAUCUUC | 0.652 |
| UCAGUGACAGAAAGGCGCCCAUGAAGACCAGGAGCGGUCACGCUGGGCGUCGGCGGGGCCUGGGGUCAGGCACUGCGACCAAGUCUUCUCACAUCCCGUGUCCGCUCACUCGAGUCAUCU | 0.26 |
| AAUCAUGCUGCUUUUACCUGCCUCAAUGAGGUAACAUCUCCCCUGACGUUUGGUUGGCACUAGAGCCCAUCACACCUAAUAUGUUUUUCCACAUUUCAUCUCCUUACGCUCACACUCAUC | 1.61 |
